Published values gathered from unrelated publications.
A part holds a random share of what one study measured. Changes are numbered by the printed parent chain.

Series 1
Target: ABI1, truncated, D143A, DHFR fusion (Arabidopsis thaliana, UniProt P49597)
Method: DHFR PCA, dose-response
Medium: yeast
Notes: Hill fit, mean, not affinity
Added: (+)-ABA, dose series
Reading: lower = more sensitive
Endpoint: ABA EC50
Starting sequence: PYL1, truncated, DHFR fusion (Arabidopsis thaliana, UniProt Q8VZS8); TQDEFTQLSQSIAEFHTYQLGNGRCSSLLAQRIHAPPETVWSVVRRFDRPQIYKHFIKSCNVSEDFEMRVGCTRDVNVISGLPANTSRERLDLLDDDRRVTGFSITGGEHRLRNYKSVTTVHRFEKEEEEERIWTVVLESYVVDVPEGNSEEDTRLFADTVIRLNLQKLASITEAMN
V44A: 47.3 µM
P37R: 157 µM
V70M: 22.3 µM
E129H: 2.14 µM
E129N: 2.07 µM
A84C: 72.2 µM
T6F: 12.8 µM
N165G: 596 µM
S150G: 21.1 µM
T1N: 2.36 µM
R111C: 63 µM
T86C: 2.26 µM
A175H: 1.86 µM
S11G: 8.04 µM
T173H: 135 µM
A170V: 62.1 µM
T120E: 532 µM
P36E: 4.23 µM

Series 2
Target: HLF, bZIP domain (human)
Method: DHFR protein complementation
Medium: yeast
Notes: single substitutions, most at no-binding floor
Baseline: wild-type JUN-FOS pair
Reading: higher = stronger binding
Endpoint: binding fitness
Starting sequence: JUN, bZIP domain (human); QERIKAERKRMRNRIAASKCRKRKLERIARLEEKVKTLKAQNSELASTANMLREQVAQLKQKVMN; partner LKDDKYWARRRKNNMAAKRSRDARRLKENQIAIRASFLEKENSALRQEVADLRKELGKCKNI
R30C: -1.54 natural log
A57S: -1.46 natural log
L52W: -1.39 natural log
Q41E: -1.37 natural log
S43Q: -1.33 natural log
M51A: -1.35 natural log
E32F: -1.38 natural log
E44K: -1.38 natural log
S47G: -1.38 natural log
I28E: -1.45 natural log
A49V: -1.45 natural log

Series 3
Target: RNA binding protein fox-1 homolog 2, RRM domain, GST-SBP tag (RBFOX2, Homo sapiens, UniProt O43251-10, residues 100-194)
Method: RNA Bind-n-Seq
Form: RNA
Medium: in vitro
Concentration: 365 nM
Notes: natural RNA segment, single round, ends assumed
Baseline: no-protein control
Reading: higher = stronger binding
Endpoint: RBNS enrichment (R)
Target sequence (chain): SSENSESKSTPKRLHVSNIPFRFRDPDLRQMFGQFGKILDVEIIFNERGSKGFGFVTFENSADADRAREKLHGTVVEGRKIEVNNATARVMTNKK
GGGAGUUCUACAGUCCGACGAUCCCAGCUAAGCUAAAUUGCAAGCUAGAUGCCUCCUGCCCCUGCCCUCAGCUGCCCAGGCCCCAGCAUGGAGAUGGCCUGCACAGCAGGCUCAGCACCUCUGAGGUGUGCAUUGGAAUUCUCGGGUGCCAA: 7.85
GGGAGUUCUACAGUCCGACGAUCAGACGGGAAGAUCAGGAGUUCAAGGUCUUAGCUACAUAGUAAGUUUGAAGCCAGCCUGGCUACUUGAGACUCUGUCUCACAAAAGCAAAUAAACAAAGGAUUAUGCUUAAUGGAAUUCUCGGGUGCCAA: 0.426
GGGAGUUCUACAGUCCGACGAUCAGCUGGAAUUUAUCUAAUCUAUUUUUGUGUUUAAAAAAGCUGUACCUACCAAAUAAAUAAAUAGUUUAUAAAAUGUAUUACUUAAGGUAUUAGCUGAGUUUAGAGUACUUUGGAAUUCUCGGGUGCCAA: 0.431
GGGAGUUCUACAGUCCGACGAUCCCAGAGUGAGUACUUACGAUAUCAAGAGGCCUUGAGUGAGCUGGCCACUGUGGUCAAAGCACGAAUUGGAAGUUCUCAGAGACAACACCAGUCAGCAGCCAAAGACCUAAUGGAAUUCUCGGGUGCCAA: 0.956
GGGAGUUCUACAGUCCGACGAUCAAGUCAGAGACAUUUUGAGGUGGUUACUACAGAUUACUGUUUCACAUUGUUUUCCUCACUGGACAGGACUGACAGGAUUACGGGGGUGGUUCCUUUAACUCUUCACCAAGUGGAAUUCUCGGGUGCCAA: 0.299
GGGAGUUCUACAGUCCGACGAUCGUGCUGGUCCAUCGUGAGUAAGAAGUCGGACUCCCUGUUCCUAGGAAGCUGCUGUGCUUGUUGUUACUGAAUGUUGGAGUAGAUCCUGAUCUGUGAUUGCGGAUUUUCGGUGGAAUUCUCGGGUGCCAA: 3.97
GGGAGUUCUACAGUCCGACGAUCCCCUUCCUGGGACUCGCCCUCAUCCUCUUCCUGCUCCCCUUCCUGGGGUGCAGCCUAAAAGGACCUAUGUCCUCACACCAUUGAAACCACUAGUUCUGUCCCCCCAGGAGUGGAAUUCUCGGGUGCCAA: 0.211
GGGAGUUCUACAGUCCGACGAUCGAAAAUGACCGCUCCUUGACCAAACUGAGAUGCACUUGGUGUGUGGGAACUGAUUGCUUCCUCCCUGUUUAUAAUUCAGUGAAUAAUCACGGGCCCAAUAUUUUACUAACUGGAAUUCUCGGGUGCCAA: 0.652

Series 4
Target: CCND1, cyclin fold, Cln2 fusion (human)
Method: yeast growth competition, sequencing
Medium: yeast
Notes: weak parent motif
Baseline: not given
Reading: higher = stronger binding
Endpoint: normalised enrichment score
Starting sequence: CDC25A docking peptide (human); PPHRRRLLFACSP
PPHRRRLLFDCSP [A10D]: -0.021
PPHARRLLFACSP [R4A]: 0.218
PPHRRRLLFACSG [P13G]: 0.522
PPHRRRLLFACSM [P13M]: 0.235
PPHRARLLFACSP [R5A]: 0.247
PPHRRTLLFACSP [R6T]: 0.142
PPHRRRLLFACCP [S12C]: 0.0842
PPHRRRLHFACSP [L8H]: -0.325
PPHRFRLLFACSP [R5F]: 0.365
PPHRRRLKFACSP [L8K]: 0.0302
PPHRGRLLFACSP [R5G]: 0.0467
PPHYRRLLFACSP [R4Y]: 0.0689
PPHRRRLAFACSP [L8A]: -0.0884
PPHRRRQLFACSP [L7Q]: -0.387
PPHRRRLLFACSV [P13V]: 0.00249
PEHRRRLLFACSP [P2E]: 0.358
PPWRRRLLFACSP [H3W]: 0.665

Series 5
Target: RING finger protein unkempt homolog, zinc fingers 1-6, GST-SBP tag (UNK, Homo sapiens, UniProt Q9C0B0, residues 30-357)
Method: RNA Bind-n-Seq
Form: RNA
Medium: in vitro
Concentration: not given
Notes: RNA with constant flanks, human and mouse sites, ends assumed
Baseline: input RNA pool
Reading: higher = stronger binding
Endpoint: bound/input enrichment
Target sequence (chain): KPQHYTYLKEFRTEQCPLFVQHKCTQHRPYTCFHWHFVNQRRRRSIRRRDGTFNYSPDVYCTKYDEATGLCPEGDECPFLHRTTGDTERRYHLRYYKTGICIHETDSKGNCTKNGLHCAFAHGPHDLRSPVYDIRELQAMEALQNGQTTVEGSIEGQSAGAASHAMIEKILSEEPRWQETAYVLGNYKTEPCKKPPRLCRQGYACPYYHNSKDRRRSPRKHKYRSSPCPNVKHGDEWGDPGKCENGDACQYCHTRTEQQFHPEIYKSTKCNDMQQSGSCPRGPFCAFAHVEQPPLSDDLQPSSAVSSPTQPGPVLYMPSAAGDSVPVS
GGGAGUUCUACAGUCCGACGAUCAAACUGACAGAAGUUGACAAUUAUCAUUUUUACUCAUCUAUACCCUCAAUGGAAAAAGAAGUAGGUAACUGUAGUCCACAUUUUCUUAAUGCUUUUGAGGAUUCCUUCAGCAGCAUCCUCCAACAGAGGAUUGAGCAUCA: 0.337 ratio
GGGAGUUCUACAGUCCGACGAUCGGGCUGCUGUGCGAGUUCAGCGAUCGCAGGCUUCUGGACAAAUGGGUGGAGCUAAGGACCACUGUGGCCCACUGCAUCUCUGUCACCCAAGAAUACAUCUUCUGUGGCUGUGCUGAUGGCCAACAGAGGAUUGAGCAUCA: 0.0791 ratio
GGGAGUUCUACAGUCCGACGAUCUAAGAAAAGAAGGGCUAAAAGAUGAGGAAGAUUUCUUUGAUUUUAAAGCUGGAGAAGAAGUUCUGGCUCGUUGGACAGACUGUCGCUAUUACCCUGCCAAGAUUGAAGCAAUUAACAAAGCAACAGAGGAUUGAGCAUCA: 0.2 ratio
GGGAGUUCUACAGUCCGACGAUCCUAUGCCUAACAGAGCCCCAGUACAACUAUUGAGCAGAAUAGCUGUUUCCUGAGAAUUACCAUAGCUCACUGGGACUGGCACUCCCUAGAUAGAAACUGAUCCCAGUAAUAAACUUUGAUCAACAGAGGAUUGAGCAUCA: 1.41 ratio
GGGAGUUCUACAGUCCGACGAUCCCCUCUGUCUGUGACACCACCAUUCCUCUGCUGCCACCCUUUCAGGAAGUCUAUGGUUUUUAGUUUAAAUUAAAGGAAUUGUUACUGUGGUGGGAAUAUGAAAUAAAGGAAGAAAAGGCCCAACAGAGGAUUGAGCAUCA: 1.74 ratio
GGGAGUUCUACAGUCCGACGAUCUGAAGGAGUCGCAGAAGCUGCACUACGUUGUGACCGAGGUUCAGGGCCCCAGCAUCACUGUGGAGUUUUCCGACUGCAAAGCUUCUCUCCAGCUCCCCAUGGAGAAGGCCAUUGAAACUGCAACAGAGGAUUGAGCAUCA: 0.214 ratio
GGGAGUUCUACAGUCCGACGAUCUGAAGCCAGCGCUCUGCGCCUGGAUGAAGACAGCGAACAUCCUCCCAUGAUUCUCCGGACUGACUGAUCCUGACCUGUGAACUCUGGCCCAGGAGCAGACAACACUGCCUGGCUGAGGACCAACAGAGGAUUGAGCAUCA: 0.201 ratio
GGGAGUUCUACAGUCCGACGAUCGUUUGCUUUGUGAACAUAUGUGUAUUGUAUAUAUUCUGUAUAGUUAUACUGUACUGAAAUAUUAGCUUGUUUGAUAUGAGAAAAAGUAUGUAUUGAGUACCUUUUUGCUAGCCUGAUUGCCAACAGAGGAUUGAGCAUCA: 1.97 ratio

Series 6
Target: PABPC1L2, full length, GST fusion (mouse, UniProt A0ABA7IW68)
Method: RNAcompete
Form: RNA
Medium: in vitro
Concentration: 20 nM
Notes: 7-mer, probes averaged, single round
Baseline: mean of 7-mers
Reading: higher = stronger binding
Endpoint: 7-mer Z-score
Construct (chain): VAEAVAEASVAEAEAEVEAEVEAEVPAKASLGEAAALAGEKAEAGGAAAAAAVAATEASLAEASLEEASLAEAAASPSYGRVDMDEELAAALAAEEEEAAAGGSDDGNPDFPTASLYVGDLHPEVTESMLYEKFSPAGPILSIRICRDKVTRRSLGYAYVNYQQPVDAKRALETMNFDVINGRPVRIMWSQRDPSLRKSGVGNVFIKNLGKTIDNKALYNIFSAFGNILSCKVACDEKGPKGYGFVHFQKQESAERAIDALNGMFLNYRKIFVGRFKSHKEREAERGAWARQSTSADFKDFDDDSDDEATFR
ACUUACG: -0.146
GUCAGAU: -0.0772
GGGACGG: 0.331
CUCUGCU: -0.389
UUGUUGU: -0.528
CGGCUCA: -0.126
GACCCAC: -0.273
CCAAGUA: -0.0935
AAUUAAA: 0.798
GUUGCGU: -0.331
GACGGAU: 0.113
CUGUUAG: -0.269
CUUUUCU: -0.371
UCACUUA: -0.255
CGACGAG: 0.216
CCUGUAU: -0.293

Some of these lines once more (series 2):
E32F: -1.38 natural log
I28E: -1.45 natural log
A49V: -1.45 natural log
Q41E: -1.37 natural log
L52W: -1.39 natural log
R30C: -1.54 natural log
M51A: -1.35 natural log
S43Q: -1.33 natural log
